Measurements of several laboratories.
Compare with care: the assays were run in different laboratories. ± gives the spread as reported.
VIPR2: Vasoactive intestinal polypeptide receptor 2 (VIPR2, Homo sapiens, UniProt P41587)
Chain of UniProt P41587 (whole entry, looked up): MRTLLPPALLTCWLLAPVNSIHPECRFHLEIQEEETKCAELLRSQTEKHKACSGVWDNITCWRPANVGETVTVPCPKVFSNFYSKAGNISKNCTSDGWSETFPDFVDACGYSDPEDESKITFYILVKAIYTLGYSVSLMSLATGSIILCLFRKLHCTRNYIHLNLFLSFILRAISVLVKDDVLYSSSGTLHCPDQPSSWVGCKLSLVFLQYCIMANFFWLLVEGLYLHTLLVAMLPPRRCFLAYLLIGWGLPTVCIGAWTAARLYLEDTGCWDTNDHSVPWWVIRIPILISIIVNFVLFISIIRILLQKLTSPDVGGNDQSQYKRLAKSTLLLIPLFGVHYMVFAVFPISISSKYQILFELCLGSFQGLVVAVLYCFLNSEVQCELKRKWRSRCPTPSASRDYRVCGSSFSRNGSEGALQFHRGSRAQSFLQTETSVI
Chain of UniProt P35348 (whole entry, looked up): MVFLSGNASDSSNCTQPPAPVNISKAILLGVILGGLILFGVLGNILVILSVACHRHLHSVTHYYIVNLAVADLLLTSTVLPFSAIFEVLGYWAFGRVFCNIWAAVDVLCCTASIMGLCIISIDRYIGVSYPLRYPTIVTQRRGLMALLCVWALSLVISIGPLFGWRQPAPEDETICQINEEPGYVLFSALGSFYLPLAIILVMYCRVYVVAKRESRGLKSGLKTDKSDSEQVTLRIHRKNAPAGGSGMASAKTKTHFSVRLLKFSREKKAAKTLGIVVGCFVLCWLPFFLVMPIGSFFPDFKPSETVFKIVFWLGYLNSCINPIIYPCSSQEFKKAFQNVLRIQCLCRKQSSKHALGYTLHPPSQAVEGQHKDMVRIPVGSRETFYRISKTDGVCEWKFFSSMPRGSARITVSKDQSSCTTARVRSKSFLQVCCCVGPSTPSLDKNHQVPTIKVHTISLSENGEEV
Chain of UniProt P08238 (whole entry, looked up): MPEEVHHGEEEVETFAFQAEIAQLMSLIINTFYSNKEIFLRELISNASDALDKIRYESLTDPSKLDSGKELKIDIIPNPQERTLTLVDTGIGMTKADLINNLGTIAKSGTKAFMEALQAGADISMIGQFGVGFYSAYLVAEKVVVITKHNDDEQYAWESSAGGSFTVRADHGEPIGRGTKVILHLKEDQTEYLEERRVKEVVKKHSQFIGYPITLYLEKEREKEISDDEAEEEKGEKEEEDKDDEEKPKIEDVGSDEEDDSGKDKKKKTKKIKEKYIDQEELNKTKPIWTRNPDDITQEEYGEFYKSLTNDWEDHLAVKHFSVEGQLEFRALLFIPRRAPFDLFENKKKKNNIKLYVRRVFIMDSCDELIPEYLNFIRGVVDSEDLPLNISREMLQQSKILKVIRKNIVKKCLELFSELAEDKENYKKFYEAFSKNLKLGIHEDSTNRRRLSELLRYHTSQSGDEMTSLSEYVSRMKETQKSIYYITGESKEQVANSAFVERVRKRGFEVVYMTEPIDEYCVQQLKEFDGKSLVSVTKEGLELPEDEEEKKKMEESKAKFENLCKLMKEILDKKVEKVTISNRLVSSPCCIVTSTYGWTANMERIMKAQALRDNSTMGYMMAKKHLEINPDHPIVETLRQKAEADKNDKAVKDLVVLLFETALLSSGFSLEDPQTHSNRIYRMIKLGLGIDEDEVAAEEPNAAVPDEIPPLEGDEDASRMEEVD
Chain of UniProt Q9JK71 (whole entry, looked up): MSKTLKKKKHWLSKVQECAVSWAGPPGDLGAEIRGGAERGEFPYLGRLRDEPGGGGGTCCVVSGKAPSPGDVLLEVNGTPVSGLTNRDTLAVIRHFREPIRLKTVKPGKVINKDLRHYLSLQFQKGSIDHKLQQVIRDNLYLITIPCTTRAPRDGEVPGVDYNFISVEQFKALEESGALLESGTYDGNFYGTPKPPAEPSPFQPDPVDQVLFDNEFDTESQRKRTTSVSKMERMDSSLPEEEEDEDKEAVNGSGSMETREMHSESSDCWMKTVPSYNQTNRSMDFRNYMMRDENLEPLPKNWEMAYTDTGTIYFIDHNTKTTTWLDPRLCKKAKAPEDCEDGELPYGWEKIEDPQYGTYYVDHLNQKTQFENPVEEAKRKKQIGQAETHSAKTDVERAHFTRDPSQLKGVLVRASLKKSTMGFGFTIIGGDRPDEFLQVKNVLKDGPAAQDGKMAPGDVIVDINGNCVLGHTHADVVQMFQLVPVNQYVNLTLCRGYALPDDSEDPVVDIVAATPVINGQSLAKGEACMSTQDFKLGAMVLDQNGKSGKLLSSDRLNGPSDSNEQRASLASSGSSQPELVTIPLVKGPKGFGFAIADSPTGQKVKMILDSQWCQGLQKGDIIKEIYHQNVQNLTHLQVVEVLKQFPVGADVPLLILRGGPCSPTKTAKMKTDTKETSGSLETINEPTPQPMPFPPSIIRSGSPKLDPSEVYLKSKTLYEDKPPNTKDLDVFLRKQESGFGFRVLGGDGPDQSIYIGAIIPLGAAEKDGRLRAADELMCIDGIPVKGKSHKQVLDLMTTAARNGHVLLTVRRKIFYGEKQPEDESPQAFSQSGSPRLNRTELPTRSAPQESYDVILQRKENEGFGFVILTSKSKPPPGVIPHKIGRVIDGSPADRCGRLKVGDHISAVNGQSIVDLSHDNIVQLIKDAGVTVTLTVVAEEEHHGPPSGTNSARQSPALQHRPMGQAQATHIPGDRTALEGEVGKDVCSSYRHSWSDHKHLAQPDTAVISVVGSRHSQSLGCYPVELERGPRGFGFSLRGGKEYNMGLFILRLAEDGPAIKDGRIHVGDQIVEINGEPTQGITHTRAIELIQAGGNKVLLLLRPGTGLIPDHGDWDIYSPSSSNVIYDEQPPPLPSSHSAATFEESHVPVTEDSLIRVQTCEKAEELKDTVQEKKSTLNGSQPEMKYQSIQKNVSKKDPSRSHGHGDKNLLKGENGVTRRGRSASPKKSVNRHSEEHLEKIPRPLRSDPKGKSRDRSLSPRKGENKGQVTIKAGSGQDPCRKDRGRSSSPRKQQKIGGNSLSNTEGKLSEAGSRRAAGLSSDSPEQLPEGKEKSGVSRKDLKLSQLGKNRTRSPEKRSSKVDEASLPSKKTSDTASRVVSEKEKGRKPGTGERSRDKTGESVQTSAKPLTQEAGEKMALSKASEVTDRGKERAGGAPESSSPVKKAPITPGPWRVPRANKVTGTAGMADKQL
Chain of UniProt P31645 (whole entry, looked up): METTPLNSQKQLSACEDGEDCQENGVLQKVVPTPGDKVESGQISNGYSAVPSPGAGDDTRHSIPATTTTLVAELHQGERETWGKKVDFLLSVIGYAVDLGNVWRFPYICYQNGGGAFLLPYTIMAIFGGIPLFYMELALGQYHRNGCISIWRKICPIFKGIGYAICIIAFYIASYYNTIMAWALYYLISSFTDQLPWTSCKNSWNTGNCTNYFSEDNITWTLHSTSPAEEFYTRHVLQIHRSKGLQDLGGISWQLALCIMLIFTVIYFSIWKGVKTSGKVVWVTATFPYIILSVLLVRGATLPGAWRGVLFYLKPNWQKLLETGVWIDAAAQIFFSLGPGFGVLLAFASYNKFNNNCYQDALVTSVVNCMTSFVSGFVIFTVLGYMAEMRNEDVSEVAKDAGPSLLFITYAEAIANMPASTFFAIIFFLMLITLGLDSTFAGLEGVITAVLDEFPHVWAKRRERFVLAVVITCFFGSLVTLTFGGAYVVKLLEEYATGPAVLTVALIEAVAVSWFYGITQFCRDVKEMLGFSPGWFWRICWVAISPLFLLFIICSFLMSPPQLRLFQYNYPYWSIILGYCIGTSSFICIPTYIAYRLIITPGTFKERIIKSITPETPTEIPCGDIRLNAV
Chain of UniProt P14416 (whole entry, looked up): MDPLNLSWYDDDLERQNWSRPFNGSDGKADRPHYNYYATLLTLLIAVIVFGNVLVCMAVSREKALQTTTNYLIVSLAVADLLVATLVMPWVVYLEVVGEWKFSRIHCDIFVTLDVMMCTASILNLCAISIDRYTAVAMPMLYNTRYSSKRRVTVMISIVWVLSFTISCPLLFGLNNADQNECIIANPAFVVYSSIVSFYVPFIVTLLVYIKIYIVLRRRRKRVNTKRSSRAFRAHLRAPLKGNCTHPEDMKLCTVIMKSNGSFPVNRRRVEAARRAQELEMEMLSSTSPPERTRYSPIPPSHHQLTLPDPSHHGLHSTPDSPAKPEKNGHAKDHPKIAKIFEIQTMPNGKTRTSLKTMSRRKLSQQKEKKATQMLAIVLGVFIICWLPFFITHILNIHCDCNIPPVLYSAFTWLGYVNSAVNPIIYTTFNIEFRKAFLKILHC
Chain of UniProt O75676 (whole entry, looked up): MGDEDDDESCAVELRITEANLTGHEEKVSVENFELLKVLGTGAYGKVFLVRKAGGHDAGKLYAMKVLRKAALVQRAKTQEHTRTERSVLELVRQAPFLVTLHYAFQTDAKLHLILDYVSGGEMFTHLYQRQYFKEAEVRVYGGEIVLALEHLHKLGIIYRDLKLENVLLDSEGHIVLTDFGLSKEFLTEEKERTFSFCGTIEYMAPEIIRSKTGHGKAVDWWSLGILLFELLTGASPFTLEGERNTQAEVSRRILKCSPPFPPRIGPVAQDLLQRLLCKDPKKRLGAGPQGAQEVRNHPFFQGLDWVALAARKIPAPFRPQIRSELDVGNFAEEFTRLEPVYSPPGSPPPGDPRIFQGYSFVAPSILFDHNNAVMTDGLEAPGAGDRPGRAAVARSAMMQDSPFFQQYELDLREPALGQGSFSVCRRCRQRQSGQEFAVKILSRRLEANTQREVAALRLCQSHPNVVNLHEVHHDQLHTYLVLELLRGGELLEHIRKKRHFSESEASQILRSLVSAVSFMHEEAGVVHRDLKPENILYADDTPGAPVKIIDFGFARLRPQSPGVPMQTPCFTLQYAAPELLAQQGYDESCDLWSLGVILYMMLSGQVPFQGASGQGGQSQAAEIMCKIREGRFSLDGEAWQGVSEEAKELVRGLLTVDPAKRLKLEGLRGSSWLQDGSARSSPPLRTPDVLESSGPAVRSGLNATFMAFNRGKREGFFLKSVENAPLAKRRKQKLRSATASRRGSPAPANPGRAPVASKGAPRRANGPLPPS

Structure (SMILES)	tested on	assay	test system	conditions	endpoint	value
O=C(O)CCn1c(=O)oc2cc(Cl)c(Cl)cc21	SLC6A4 (Homo sapiens, UniProt P31645)	antagonist		median value	IC50	> 100 µM
O=C1NC2(CC2)COc2ncc(F)cc2[C@H]2COCCN2c2ccn3ncc1c3n2			Sprague-Dawley rats, female, blood	oral, 20 mg/kg/day, end of treatment, 4-week subacute toxicity	fibrinogen	3.08 ± 0.82 g/L
CSCC[C@H](NC(=O)[C@H](CCC(N)=O)NC(=O)[C@H](CCCCN)NC(=O)[C@H](CCCNC(=N)N)NC(=O)[C@H](Cc1ccc(O)cc1)NC(=O)[C@H](CCCNC(=N)N)NC(=O)[C@H](CO)NC(=O)[C@H](Cc1ccc(O)cc1)NC(=O)[C@H](CO)NC(=O)[C@H](CC(=O)O)NC(=O)[C@@H](NC(=O)[C@@H](N)Cc1ccccc1)[C@@H](C)O)C(=O)N[C@@H](C)C(=O)N[C@H](C(=O)N[C@@H](CCCCN)C(=O)N[C@@H](CCCCN)C(=O)N[C@@H](Cc1ccc(O)cc1)C(=O)N[C@@H](CC(C)C)C(=O)N[C@@H](C)C(=O)N[C@@H](C)C(=O)N[C@H](C(=O)N[C@@H](CC(C)C)C(=O)NCC(=O)N[C@@H](CCCCN)C(=O)N[C@@H](CCCNC(=N)N)C(=O)N[C@@H](Cc1ccc(O)cc1)C(=O)N[C@@H](CCCCN)C(=O)N[C@@H](CCC(N)=O)C(=O)N[C@@H](CCCCn1cc(C[C@H](NC(=O)CNC(=O)[C@H](CO)NC(=O)[C@H](CCCNC(=N)N)NC(=O)[C@H](CO)NC(=O)[C@H](CC(C)C)NC(=O)[C@H](CC(C)C)NC(=O)CNC(=O)[C@H](C)NC(=O)[C@H](CC(C)C)NC(=O)[C@H](CCCNC(=N)N)NC(=O)[C@H](Cc2c[nH]cn2)NC(=O)[C@@H](NC(=O)[C@@H](N)C(C)C)[C@@H](C)O)C(=O)N[C@H](C(=O)N[C@H](C(=O)N[C@@H](CCCCN)C(=O)N[C@@H](CC(N)=O)C(=O)N[C@@H](CC(N)=O)C(=O)N[C@@H](Cc2ccccc2)C(=O)N[C@H](C(=O)N2CCC[C@H]2C(=O)N[C@H](C(=O)N[C@@H](CC(N)=O)C(=O)N[C@H](C(=O)NCC(=O)N[C@@H](CO)C(=O)N[C@@H](CCCCN)C(=O)N[C@@H](C)C(=O)N[C@@H](Cc2ccccc2)C(N)=O)C(C)C)[C@@H](C)O)C(C)C)C(C)C)C(C)C)nn1)C(=O)N[C@H](C(=O)N[C@@H](CCCCN)C(=O)N[C@@H](CC(N)=O)C(=O)N[C@@H](CCCCN)C(N)=O)C(C)C)C(C)C)C(C)C	VIPR2	cAMP, antagonist			Kb	> 10 µM
C[C@@H](Cc1ccsc1)NC(=O)NC[C@H](Cc1ccc(O)cc1)N(C)C	ADRA1A (Homo sapiens, UniProt P35348)	cell-free assay			Ki	6 µM
CSCC[C@H](NC(=O)[C@H](CCC(N)=O)NC(=O)[C@H](CCCCN)NC(=O)[C@H](CCCNC(=N)N)NC(=O)[C@H](Cc1ccc(O)cc1)NC(=O)[C@H](CCCNC(=N)N)NC(=O)[C@H](CO)NC(=O)[C@H](Cc1ccc(O)cc1)NC(=O)[C@H](CO)NC(=O)[C@H](CC(=O)O)NC(=O)[C@@H](NC(=O)[C@@H](N)Cc1ccccc1)[C@@H](C)O)C(=O)N[C@@H](C)C(=O)N[C@H](C(=O)N[C@@H](CCCCN)C(=O)N[C@@H](CCCCn1cc(C[C@H](NC(=O)CNC(=O)[C@H](CO)NC(=O)[C@H](CCCNC(=N)N)NC(=O)[C@H](CO)NC(=O)[C@H](CC(C)C)NC(=O)[C@H](CC(C)C)NC(=O)CNC(=O)[C@H](C)NC(=O)[C@H](CC(C)C)NC(=O)[C@H](CCCNC(=N)N)NC(=O)[C@H](Cc2c[nH]cn2)NC(=O)[C@@H](NC(=O)[C@@H](N)C(C)C)[C@@H](C)O)C(=O)N[C@H](C(=O)N[C@H](C(=O)N[C@@H](CCCCN)C(=O)N[C@@H](CC(N)=O)C(=O)N[C@@H](CC(N)=O)C(=O)N[C@@H](Cc2ccccc2)C(=O)N[C@H](C(=O)N2CCC[C@H]2C(=O)N[C@H](C(=O)N[C@@H](CC(N)=O)C(=O)N[C@H](C(=O)NCC(=O)N[C@@H](CO)C(=O)N[C@@H](CCCCN)C(=O)N[C@@H](C)C(=O)N[C@@H](Cc2ccccc2)C(N)=O)C(C)C)[C@@H](C)O)C(C)C)C(C)C)C(C)C)nn1)C(=O)N[C@@H](Cc1ccc(O)cc1)C(=O)N[C@@H](CC(C)C)C(=O)N[C@@H](C)C(=O)N[C@@H](C)C(=O)N[C@H](C(=O)N[C@@H](CC(C)C)C(=O)NCC(=O)N[C@@H](CCCCN)C(=O)N[C@@H](CCCNC(=N)N)C(=O)N[C@@H](Cc1ccc(O)cc1)C(=O)N[C@@H](CCCCN)C(=O)N[C@@H](CCC(N)=O)C(=O)N[C@@H](CCCNC(=N)N)C(=O)N[C@H](C(=O)N[C@@H](CCCCN)C(=O)N[C@@H](CC(N)=O)C(=O)N[C@@H](CCCCN)C(N)=O)C(C)C)C(C)C)C(C)C	VIPR2	cAMP accumulation, antagonist	COS-7 transfected	first of 2 determinations, added: PACAP-38	Kb	4.47 µM
CCCc1cc2cc(-n3nc(CCC)c4c3CC(C)(C)CC4=O)cc(N3CCC(O)CC3)c2c(=O)[nH]1	HSP90AB1 (Homo sapiens, UniProt P08238)	fluorescence polarization		24 h, 4 °C, added: FITC-geldanamycin tracer	Kd	1.66 µM
CN(C)[C@H](CNC(=O)/C=C/c1cccc2ccccc12)Cc1ccc(O)cc1	DRD2 (Homo sapiens, UniProt P14416)	cell-free assay			Ki	2.2 µM
CC(C)C[C@H](NC(=O)[C@H](CO)NC(=O)[C@@H]1CCCN1C(=O)[C@H](CCC(N)=O)NC(=O)[C@@H](NC(=O)[C@H](C)NC(=O)[C@H](CCCCN)NC(=O)[C@H](CC(C)C)NC(=O)[C@H](Cc1ccc(O)cc1)NC(=O)[C@H](COP(=O)(O)O)NC(=O)[C@H](CCC(=O)O)NC(=O)[C@H](CCCNC(=N)N)NC(=O)[C@H](CCCNC(=N)N)NC(=O)[C@H](C)NC(=O)[C@H](C)N)[C@@H](C)O)C(=O)O	Membrane-associated guanylate kinase, WW and PDZ domain-containing protein 3 (Magi3, Rattus norvegicus, UniProt Q9JK71)	isothermal titration calorimetry	rat	pH 8.0, 25 °C	Kd	0.4 ± 0.01 µM
O=C(N[C@@H]1c2ccccc2C[C@H]1N1CCCC1)c1ccc(-c2ccnc3[nH]ccc23)nc1	Ribosomal protein S6 kinase alpha-4, C-terminal kinase domain (RPS6KA4, Homo sapiens, UniProt O75676)	binding, competition with immobilised ligand			Kd	0.63 µM

A few entries again:
Structure (SMILES)	tested on	assay	test system	conditions	endpoint	value
O=C(O)CCn1c(=O)oc2cc(Cl)c(Cl)cc21	SLC6A4 (Homo sapiens, UniProt P31645)	antagonist		median value	IC50	> 100 µM
